# Assay results pooled from the literature.
# Protocols differ between the studies behind these lines. Several values in a cell are separate wells, animals, samples, runs or records. ± gives the spread as reported.
# Ubiquitin carboxyl-terminal hydrolase 39 ZnF-UBD domain: Ubiquitin carboxyl-terminal hydrolase 39, ZnF-UBD domain (Homo sapiens, UniProt Q53GS9)
# Chain of UniProt Q53GS9 (whole entry, looked up): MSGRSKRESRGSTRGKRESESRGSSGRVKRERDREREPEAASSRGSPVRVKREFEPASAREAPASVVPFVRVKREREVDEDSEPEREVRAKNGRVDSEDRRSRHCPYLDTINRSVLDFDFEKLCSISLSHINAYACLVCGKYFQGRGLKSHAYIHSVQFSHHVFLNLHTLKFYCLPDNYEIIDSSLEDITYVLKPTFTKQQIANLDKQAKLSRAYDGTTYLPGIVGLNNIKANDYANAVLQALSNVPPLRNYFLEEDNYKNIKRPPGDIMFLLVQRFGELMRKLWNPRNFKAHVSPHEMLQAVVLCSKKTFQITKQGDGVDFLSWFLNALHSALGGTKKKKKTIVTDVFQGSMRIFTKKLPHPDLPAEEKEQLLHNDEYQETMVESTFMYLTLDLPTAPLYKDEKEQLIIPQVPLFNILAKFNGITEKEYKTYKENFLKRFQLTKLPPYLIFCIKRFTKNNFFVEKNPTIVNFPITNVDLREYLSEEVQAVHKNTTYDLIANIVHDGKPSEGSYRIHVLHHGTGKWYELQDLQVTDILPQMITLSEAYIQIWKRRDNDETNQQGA
Compound,tested on,test,test system,setting,scale,endpoint,value
NC(=O)CCC(N)C(=O)O (stereo in doubt),,"binding, equilibrium dialysis LC-MS",,"5 µM, thermostabilized A2AR-BRIL construct","reference: no-protein control, direction not given",z-scored log2 fold change,0.242
FC(F)(F)Oc1cccc(-c2ccnc3[nH]c(C(F)(F)F)nc23)c1,,,GAN diet MASH mice,"300 mg/kg, 31 days",reference: GAN control,plasma triglycerides,no effect
NC1(C(=O)N[C@@H](CCO)c2ccc(Cl)cc2)CCN(c2nc[nH]c3nccc2-3)CC1,,RECIST v1.1,human mCRPC patients,"dose not given, added: enzalutamide",,RECIST non-response rate,88.9%
COc1ccccc1[C@H](Cn1c(=O)n(C(C)(C)C(=O)O)c(=O)c2c(C)c(-c3ncco3)sc21)OC1CCOCC1,,,human,"200 mg, post-treatment",,blood Glucose level,91.9 ± 6.42 mg/dL
OC(CCN1CCCCC1)(c1ccccc1)C1CC2C=CC1C2 (centres unmarked),,resting-state EEG,healthy elderly humans,"oral, 4 mg, eyes open, LS mean",,EEG Beta3-power Pz-O2,1.8 µV²
O=C(COc1ccc(Cl)cc1)NC12CC(c3nnc([C@H]4C[C@@H](OC(F)(F)F)C4)o3)(C1)C2,,,"healthy human, PBMC","200 mg once daily, day 14, 4 h post-dose, median, added: sodium arsenite ex vivo",reference: baseline,ATF4 protein change,-50.2%
N#Cc1ccc2c(c1)[C@H]1CCCN(C(=O)c3ccc4[nH]cnc4c3)[C@H]1C2,,,"T2DM patients with overweight or obesity, urine","oral, 240 mg, day 1, 0-24 h, multiple dosing, adjusted geometric mean","reference: baseline day -1, -24-0 h",total urinary corticosteroid excretion,174%
COc1ccc(-c2cncc(N[C@@H](C)c3cccc(NC(=O)c4cncc(C)c4)c3)n2)cc1OC,,item: rno-miR-340-5p,"rat SU5416/hypoxia model, lung",dose not given,reference: SU5416/hypoxia vehicle,fold change,0.688
CCCC(=O)SCCNC(=O)CCNC(=O)[C@H](O)C(C)(C)COP(=O)(O)OP(=O)(O)OC[C@H]1O[C@@H](n2cnc3c(N)ncnc32)[C@H](O)[C@@H]1OP(=O)(O)O,,"binding, equilibrium dialysis LC-MS",,"5 µM, thermostabilized A2AR-BRIL construct","reference: no-protein control, direction not given",z-scored log2 fold change,-0.228
COc1cc(C(=O)CCO)ccc1O,,DPPH radical,,300 µg/mL,,radical scavenging,80.1 ± 1.14%
C[C@H]1C[C@H]2CSC(N)=N[C@@]2(c2nc(NC(=O)c3ccc(OC(F)F)cn3)cs2)CO1,,item: Aβ1-40,"healthy adults, plasma","200 mg single dose, 24 h post-dose",reference: placebo,percent change from baseline,-90.2%
Cc1noc(C)c1-c1cc(C(O)(c2ccccn2)c2ccccn2)c2nc(C3CC3)[nH]c2c1,,item: CCR2 expression,"human, peripheral blood","0.6 mg, day 8, 1599 study",,maximum inhibition,34.5%
O=C(O)CNC(=O)Cc1ccccc1,,,"ventricular cardiomyocytes, C57BL/6 mouse","dose not given, 0.7 s",,sarcomere length,1.72 µm
Cc1ccc(C(=O)Nc2ccc(CN3CCN(C)CC3)c(C(F)(F)F)c2)cc1C#Cc1cnc2cccnn12,,platelet aggregation,platelet-rich plasma,"0.1 µM, DMSO 100, added: collagen 2 mg/mL",,aggregation,8.3%
CC(c1cc2ccccc2s1)N(O)C(N)=O (centres unmarked),,item: PGF2α,human whole blood,"3 µM, added: Escherichia coli",,amount,630 ± 423 pg/mL blood
Cc1ccc(NC(=O)c2ccnc(C(F)(F)F)c2)cc1-c1cc(OCCO)nc(N2CCOCC2)c1,,,"cancer patients, tumour biopsies","dose not given, cycle 15 day 1, median across doses single-agent",reference: baseline,DUSP6 mRNA reduction,21.6%
Nc1ncnc2c1ncn2[C@@H]1O[C@H](CSCC[C@H](N)C(=O)O)[C@@H](O)[C@H]1O,,"binding, equilibrium dialysis LC-MS",,"5 µM, thermostabilized A2AR-BRIL construct","reference: no-protein control, direction not given",z-scored log2 fold change,0.356
COc1cc2cc(-c3ccc(CC(=O)Nc4cc(C(C)(C)C(F)(F)F)no4)cn3)cnc2cc1OC,,,human RET-altered advanced solid tumours,"75 mg, phase I pooled, RECIST 1.1",,objective response rate,25%
O=C(OC(C(F)(F)F)C(F)(F)F)N1CCN(Cc2cccc(Oc3ccccc3)c2)CC1,,PET blocking study,"rhesus monkey, brain Pons","0.01 mg/kg, compound pretreatment, added: [18F]T-401 tracer",,k4,0.0963 min⁻¹
Nc1ccn([C@H]2C[C@H](O)[C@@H](COP(=O)(O)OP(=O)(O)O)O2)c(=O)n1,,"binding, equilibrium dialysis LC-MS",,"5 µM, thermostabilized A2AR-BRIL construct","reference: no-protein control, direction not given",z-scored log2 fold change,-1.14
COC[C@@H](c1ccc(C(F)(F)F)cc1)N1CCN(C2(C)CCN(C(=O)c3c(C)ncnc3C)CC2)C[C@@H]1C,,,"HIV-1 infected patients, plasma","dose not given, week 24, with optimized background regimen",reference: baseline,change in HIV-1 RNA,-2.05 log10 copies/mL
CC(C)NCC(O)c1ccc(O)c(O)c1 (centres unmarked),,,"ventricular cardiomyocytes, C57BL/6 mouse","dose not given, 0.54 s",,sarcomere length,1.5 µm
O=C(O)CNc1ccc2nncn2n1,Ubiquitin carboxyl-terminal hydrolase 39 ZnF-UBD domain,,,,,Kd,> 1000 µM
COc1ccc(C2=N[C@@H](c3ccc(Cl)cc3)[C@@H](c3ccc(Cl)cc3)N2C(=O)N2CCNC(=O)C2)c(OC(C)C)c1,,histology,"Dmd C3333Y mice, heart",dose not given,,fibrotic area,13.8% and 14.4% and 10.8% and 10.2% and 9.5%
CCC(CO)C(=O)O (centres unmarked),,"binding, equilibrium dialysis LC-MS",,"5 µM, thermostabilized A2AR-BRIL construct","reference: no-protein control, direction not given",z-scored log2 fold change,0.362
CSCCNc1nc(SCCC(F)(F)F)nc2c1ncn2[C@@H]1O[C@H](COP(=O)(O)OP(=O)(O)C(Cl)(Cl)P(=O)(O)O)[C@@H](O)[C@H]1O,,"platelet aggregation, light transmission aggregometry","human patients, platelet-rich plasma","dose not given, 2 h, added: TRAP 5 µM",,patients with IPA above 80%,15.4%
CN(CCOc1ccc(CC2SC(=O)NC2=O)cc1)c1ccccn1 (racemic),,,"C57BL/6 mice, diet-induced obese, L4 vertebra",,,BV/TV,6.7 ± 1.4%
Cc1n[nH]c2ccc(-c3cc(OC[C@@H](N)Cc4ccccc4)cnc3-c3ccoc3)cc12,,"kinase binding, competitor, MIB/MS competition, item: PKH3",Candida albicans cell lysate,1 µM,reference: DMSO,log2 fold change,-0.128
C[C@H]1O[C@@H](O[C@H]2CC[C@@]3(C)[C@@H](CC[C@]4(C)[C@@H]3C=C[C@]35OC[C@@]6(CCC(C)(C)C[C@H]63)[C@@H](O)C[C@]54C)[C@]2(C)CO)[C@H](O)[C@@H](O[C@@H]2O[C@H](CO)[C@@H](O)[C@H](O)[C@H]2O)[C@H]1O,,"Western blot, item: Deptor","mice, normal control diet, liver","dose not given, high dose, unit not given",reference: β-actin,protein level,1.32 and 0.995 and 0.651
NC(=O)c1cnc2[nH]ccc2c1N[C@@H]1[C@@H]2CC3C[C@H]1C[C@@](O)(C3)C2,,"total naive T cells, flow cytometry","Japanese humans, peripheral blood",60 mg single dose,reference: baseline,percent change,-2%
CO[C@H]1CC[C@H](N2C(=O)CNc3ncc(-c4ccc(C(C)(C)O)nc4)nc32)CC1,,flow cytometry,"stimulated B cells, human, blood","60 mg single dose, 3 h, mean",reference: baseline,pS6RP change from baseline,-72.2%
N#Cc1ccn2c(-c3ccncc3)c(-c3ccc(F)cc3)nc2c1,,"kinase binding, competitor, MIB/MS competition, item: SCH9",Candida albicans cell lysate,100 nM,reference: DMSO,log2 fold change,-0.28
N#Cc1ccc2c(c1)[C@H]1CCCN(C(=O)c3ccc4[nH]cnc4c3)[C@H]1C2,,,"human, Phase II trial","20 mg once daily, day 28, adjusted mean",reference: baseline,diastolic blood pressure change,1.8 mmHg
OC[C@H]1O[C@@H](O[C@H]2[C@H](O)[C@@H](O)[C@H](O)O[C@@H]2CO)[C@H](O)[C@@H](O)[C@H]1O,,"binding, equilibrium dialysis LC-MS",,"5 µM, thermostabilized A2AR-BRIL construct","reference: no-protein control, direction not given",z-scored log2 fold change,0.272
C[C@H](Oc1ccc(Br)cc1-c1ccon1)C(=O)O,,"peak grip force, handgrip dynamometry",healthy human,"800 mg, SAD",,difference from placebo,-1.29 kg
Nc1ccn([C@H]2C[C@H](O)[C@@H](CO)O2)c(=O)n1,,"binding, equilibrium dialysis LC-MS",,"5 µM, thermostabilized A2AR-BRIL construct","reference: no-protein control, direction not given",z-scored log2 fold change,0.105
C[C@@H]1CCC[C@H](n2cnc(-c3cc(Cl)ccc3-n3cc(Cl)nn3)cc2=O)c2cc(ccn2)-c2c(cnn2C(F)F)NC1=O,,,cynomolgus monkey plasma,"IC1.5× aPTT, STA-PTT reagent",,concentration for aPTT prolongation,70 nM
Cc1sc2ncn(CC(=O)O)c(=O)c2c1C,Ubiquitin carboxyl-terminal hydrolase 39 ZnF-UBD domain,,,,,Kd,> 1000 µM
C[C@@H](O)CCOC(=O)C[C@@H](C)O,,item: C12 acylcarnitine,"human, plasma","60 min, log2-transformed values",,metabolite level,-3.9 ± 0.98 µmol/L
C=CCn1c(=O)c2cnc(Nc3ccc(N4CCN(C)CC4)cc3)nc2n1-c1ccc2c(n1)[C@@](O)(CC)CC2,,,"BALB/c nude mouse, DU-145 xenograft","oral, 80 mg/kg, 5 d on 2 d off ×4, day 30",reference: vehicle,tumour volume,59.6%
O=C(/C=C/c1ccc(O)c(O)c1/C=C/c1ccc(O)c(O)c1)O[C@H](Cc1ccc(O)c(O)c1)C(=O)O,,,isolated myocardial tissue,1 µM,,LVEDP,3.85 mmHg
COc1cc(Nc2ncc3c(n2)-c2ccc(Cl)cc2C(c2c(F)cccc2OC)=NC3)ccc1C(=O)O,,,"mouse, NB-1643 neuroblastoma xenograft","oral, 5.2 mg/kg, day 14",reference: vehicle,relative tumour volume T/C,1.15
O=c1[nH]c(=O)c2nc[nH]c2[nH]1,,"binding, equilibrium dialysis LC-MS",,"5 µM, thermostabilized A2AR-BRIL construct","reference: no-protein control, direction not given",z-scored log2 fold change,0.644
CCCCC1(CCCC)CN(c2ccccc2)c2cc(SC)c(OCC(=O)N[C@@H](C(=O)NCC(=O)O)c3ccccc3)cc2S(=O)(=O)C1,,item: 7α-hydroxy-4-cholesten-3-one,human,"5 mg once daily, 120 h",,plasma C4 level,49.7 ng/mL
N#Cc1ccc2c(-c3ccncc3)c(-c3ccc(F)cc3)nn2c1,,"kinase binding, competitor, MIB/MS competition, item: RIM11",Candida albicans cell lysate,1 µM,reference: DMSO,log2 fold change,-0.13
O=P(O)(O)C(Cl)(Cl)P(=O)(O)O,,immunostaining,"mouse, SAH model, meninges","dose not given, day 1",reference: total area,Iba1-positive area,0.82%
c1ccc(-c2n[nH]cc2-c2ccnc3ccccc23)nc1,,"kinase binding, competitor, MIB/MS competition, item: CMK1",Candida albicans cell lysate,100 nM,reference: DMSO,log2 fold change,1.39
COC(=O)CCc1ccc(OCC(O)CNC(C)C)cc1 (centres unmarked),,,healthy male humans,"concentration not given, 15 min, baseline before dosing, added: saline",,diastolic blood pressure,62.8 mm Hg
O=C(O)COC(=O)Cc1ccccc1Nc1c(Cl)cccc1Cl,,"bioactivation, item: unknown glutathione adduct",human,,,Km,5.9 µM
CCOC(=O)NCc1ccc(O)cc1,,ABTS radical,,300 µg/mL,,radical scavenging,50.7 ± 1.19%

# For quick reference, copied from above:
Compound,tested on,test,test system,setting,scale,endpoint,value
O=C(COc1ccc(Cl)cc1)NC12CC(c3nnc([C@H]4C[C@@H](OC(F)(F)F)C4)o3)(C1)C2,,,"healthy human, PBMC","200 mg once daily, day 14, 4 h post-dose, median, added: sodium arsenite ex vivo",reference: baseline,ATF4 protein change,-50.2%
N#Cc1ccc2c(c1)[C@H]1CCCN(C(=O)c3ccc4[nH]cnc4c3)[C@H]1C2,,,"T2DM patients with overweight or obesity, urine","oral, 240 mg, day 1, 0-24 h, multiple dosing, adjusted geometric mean","reference: baseline day -1, -24-0 h",total urinary corticosteroid excretion,174%
COc1ccc(-c2cncc(N[C@@H](C)c3cccc(NC(=O)c4cncc(C)c4)c3)n2)cc1OC,,item: rno-miR-340-5p,"rat SU5416/hypoxia model, lung",dose not given,reference: SU5416/hypoxia vehicle,fold change,0.688
CCCC(=O)SCCNC(=O)CCNC(=O)[C@H](O)C(C)(C)COP(=O)(O)OP(=O)(O)OC[C@H]1O[C@@H](n2cnc3c(N)ncnc32)[C@H](O)[C@@H]1OP(=O)(O)O,,"binding, equilibrium dialysis LC-MS",,"5 µM, thermostabilized A2AR-BRIL construct","reference: no-protein control, direction not given",z-scored log2 fold change,-0.228
